{"data": "Published values collected from several papers", "note": "Each numbered part is a random draw from the data of one study; scales do not carry over between parts."}
{"data": "Series 1", "target": "Sal-like protein 4, full length isoform B (SALL4, Homo sapiens, UniProt Q9UJQ4-2, residues 1-616)", "technique": "universal PBM", "molecule type": "double-stranded DNA, one strand shown", "matrix": "in vitro", "concentration": "not given", "notes": "8-mer, flanks averaged, mean of replicates", "direction": "higher = stronger binding", "Construct (chain)": "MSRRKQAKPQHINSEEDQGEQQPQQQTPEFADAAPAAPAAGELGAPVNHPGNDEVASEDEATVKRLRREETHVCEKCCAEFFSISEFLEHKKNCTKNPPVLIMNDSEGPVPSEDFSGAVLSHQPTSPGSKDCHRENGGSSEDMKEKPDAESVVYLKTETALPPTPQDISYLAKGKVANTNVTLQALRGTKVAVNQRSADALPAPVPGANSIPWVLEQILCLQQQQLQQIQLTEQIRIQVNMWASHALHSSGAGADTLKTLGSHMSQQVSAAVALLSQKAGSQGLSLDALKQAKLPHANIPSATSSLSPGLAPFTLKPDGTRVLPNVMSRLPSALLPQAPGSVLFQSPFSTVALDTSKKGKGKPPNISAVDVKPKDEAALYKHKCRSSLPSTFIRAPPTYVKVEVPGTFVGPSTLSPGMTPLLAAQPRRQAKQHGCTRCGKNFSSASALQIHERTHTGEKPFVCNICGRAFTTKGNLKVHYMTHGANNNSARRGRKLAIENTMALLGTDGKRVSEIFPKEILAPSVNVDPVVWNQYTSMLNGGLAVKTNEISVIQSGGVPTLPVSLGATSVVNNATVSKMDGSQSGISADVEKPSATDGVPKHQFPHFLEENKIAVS"}
{"Oligonucleotide": "GTACCCAC", "E-score": -0.0564}
{"Oligonucleotide": "GATTTAGC", "E-score": -0.101}
{"Oligonucleotide": "CGCAACCG", "E-score": -0.25}
{"Oligonucleotide": "AAACGCGC", "E-score": -0.239}
{"Oligonucleotide": "AAAAAGGA", "E-score": 0.0662}
{"Oligonucleotide": "AGCCCCCG", "E-score": -0.375}
{"Oligonucleotide": "GCGATGGA", "E-score": -0.147}
{"Oligonucleotide": "AAGGGACT", "E-score": -0.0724}
{"data": "Series 2", "target": "Interferon regulatory factor 7, full length, phosphomimetic (IRF7, Homo sapiens, UniProt Q92985, residues 1-503, S471D/S472D/S475D/S476D/S477D/S483D/S484D/S487D)", "technique": "protein-binding microarray", "molecule type": "double-stranded DNA, one strand shown", "matrix": "in vitro", "concentration": "2200 nM top", "notes": "60-bp whole probe", "together with": "salmon DNA 0.4 mg/ml", "relative to": "random background probes", "direction": "higher = stronger binding", "constant ends, left off below": "GCCTAGCAC … GTCTTGATTCGCTTGACGCTGCTG", "Construct (chain)": "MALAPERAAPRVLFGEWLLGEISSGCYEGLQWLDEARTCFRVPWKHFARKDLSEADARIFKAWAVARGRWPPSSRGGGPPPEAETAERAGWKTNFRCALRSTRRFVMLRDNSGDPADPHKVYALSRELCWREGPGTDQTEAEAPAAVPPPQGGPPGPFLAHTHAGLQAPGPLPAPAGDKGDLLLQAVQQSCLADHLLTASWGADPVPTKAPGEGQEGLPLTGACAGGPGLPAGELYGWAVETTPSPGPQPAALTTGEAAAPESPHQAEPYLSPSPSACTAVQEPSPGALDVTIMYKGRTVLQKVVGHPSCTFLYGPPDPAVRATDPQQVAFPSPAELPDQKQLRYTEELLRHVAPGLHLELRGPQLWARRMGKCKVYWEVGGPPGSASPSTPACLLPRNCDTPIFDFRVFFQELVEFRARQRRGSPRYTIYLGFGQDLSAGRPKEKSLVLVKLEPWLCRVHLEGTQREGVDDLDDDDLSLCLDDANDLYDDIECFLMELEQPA"}
{"Oligonucleotide": "TTAGATCGCAGTTTCGATTAGTGCTAG", "fitted relative affinity [z-score]": 5.06}
{"Oligonucleotide": "TTACGACTGGACTTTCGGTTAGTGCTA", "fitted relative affinity [z-score]": 5.42}
{"Oligonucleotide": "TTTCCACTTTCTTTTGCTTGGTGCTAG", "fitted relative affinity [z-score]": 8.6}
{"Oligonucleotide": "GACGATTTCGAGTATCGAGACGTGCTA", "fitted relative affinity [z-score]": 1.55}
{"Oligonucleotide": "GACGGTTTACTTTCCCTGACGTGCTAG", "fitted relative affinity [z-score]": 2.56}
{"Oligonucleotide": "TTAGCTCTCAGTTTCGATTAGTGCTAG", "fitted relative affinity [z-score]": 5.38}
{"Oligonucleotide": "GACGGACTGTACTATCGGGACGTGCTA", "fitted relative affinity [z-score]": -0.343}
{"Oligonucleotide": "TCCCATTAAATTTTAATAACGTGCTAG", "fitted relative affinity [z-score]": 0.278}
{"Oligonucleotide": "CACGATTTCGGGACTGGAGACGTGCTA", "fitted relative affinity [z-score]": 1.75}
{"data": "Single results of other studies"}
{"Substance": "SRSF1 (Homo sapiens, UniProt Q07955)", "target or system": "SRSF5 (Homo sapiens, UniProt Q13243)", "assay": "cross-linking MS", "test system": "cell fractions", "conditions": "together with: DSSO", "endpoint": "cross-linked residues", "result": "K179 to K125"}
{"Substance": "PhoQ, residues 284 288 289 292 302 303 SVHLDV", "target or system": "PhoP, residues 12 14 15 18 19 VQGLL (Escherichia coli, UniProt P23836)", "assay": "Sort-seq, item: YFP reporter", "test system": "E. coli", "conditions": "PhoQ-PhoP variant library, together with: 10 µM Mg2+", "how to read": "relative to: high Mg2+ state, higher = stronger signaling", "endpoint": "fold induction", "result": 8.3}
{"note": "Repeated from above (series 1):"}
{"Oligonucleotide": "AAAAAGGA", "E-score": 0.0662}
{"Oligonucleotide": "AGCCCCCG", "E-score": -0.375}
